Results gathered from unrelated publications.
Parts stem from different laboratories: compare values within a part only. Changes are numbered by the printed parent chain.

Set 1
Target: ABI1, truncated, D143A, DHFR fusion (Arabidopsis thaliana)
Method: DHFR PCA, deep sequencing
Sample: yeast
Setting: methotrexate growth selection, single substitutions
With: (+)-ABA 2500 µM
Relative to: wild-type fitted maximum
Direction: higher = stronger binding
Starting sequence: PYL1, truncated, DHFR fusion (Arabidopsis thaliana); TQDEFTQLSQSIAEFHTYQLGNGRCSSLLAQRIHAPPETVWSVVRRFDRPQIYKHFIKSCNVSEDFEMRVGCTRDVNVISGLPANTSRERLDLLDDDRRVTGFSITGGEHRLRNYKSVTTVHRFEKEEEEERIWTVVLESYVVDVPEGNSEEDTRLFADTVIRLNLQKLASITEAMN
`K116P`: “relative binding score” -6.69%.
For `R155V`, “relative binding score” read 95%.
`R90C` — result for “relative binding score”: 88.7%.
`T86R` — result for “relative binding score”: 96%.
Under “relative binding score”, `G107C` is recorded as 92.6%.
`Q19N`: “relative binding score” 100%.
`N149F`: “relative binding score” 47.6%.

Set 2
Target: Interferon regulatory factor 7, full length, phosphomimetic (IRF7, Homo sapiens, UniProt Q92985, residues 1-503, S471D/S472D/S475D/S476D/S477D/S483D/S484D/S487D)
Method: protein-binding microarray
Molecule type: double-stranded DNA, one strand shown
Sample: in vitro
Concentration: 2200 nM top
Setting: 60-bp whole probe
With: salmon DNA 0.4 mg/ml
Relative to: random background probes
Direction: higher = stronger binding
All sequences stand within: GCCTAGCAC … GTCTTGATTCGCTTGACGCTGCTG
Construct (chain): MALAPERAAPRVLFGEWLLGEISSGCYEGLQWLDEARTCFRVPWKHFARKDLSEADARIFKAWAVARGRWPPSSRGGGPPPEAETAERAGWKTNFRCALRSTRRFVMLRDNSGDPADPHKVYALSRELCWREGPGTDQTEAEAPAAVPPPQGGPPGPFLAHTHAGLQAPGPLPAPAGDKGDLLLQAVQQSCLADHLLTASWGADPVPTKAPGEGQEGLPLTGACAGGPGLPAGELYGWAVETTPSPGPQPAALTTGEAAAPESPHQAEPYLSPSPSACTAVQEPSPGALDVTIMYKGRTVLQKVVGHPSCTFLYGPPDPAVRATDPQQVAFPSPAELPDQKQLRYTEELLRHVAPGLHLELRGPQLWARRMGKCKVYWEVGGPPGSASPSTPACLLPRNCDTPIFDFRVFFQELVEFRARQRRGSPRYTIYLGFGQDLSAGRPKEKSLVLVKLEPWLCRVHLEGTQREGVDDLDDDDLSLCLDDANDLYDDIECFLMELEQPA
For `TCATTTATCCCTGACAGACTGTGCTAG`, “fitted relative affinity” read 1.48 z-score.
`TTAGGTCTCGGTATCGGGTAGTGCTAG`: “fitted relative affinity” 0.386 z-score.
`GACTGTTTCCTACTGCTGACGTGCTAG` — result for “fitted relative affinity”: 2.15 z-score.
For `GACGGTATCAGTCTCGAGACGTGCTAG`, “fitted relative affinity” read 0.456 z-score.
For `GACGCACTGGGGTATCGAGACGTGCTA`, “fitted relative affinity” read -0.285 z-score.
`TCAACTCGCCTTTTTTGACTGTGCTAG`: “fitted relative affinity” 1.3 z-score.
For `TGACTTTTGAGAGATGGAAACGTGCTA`, “fitted relative affinity” read 0.0264 z-score.
Under “fitted relative affinity”, `TTATGACTGGGTTTCGGTTAGTGCTAG` is recorded as 4.37 z-score.
For `GACGGTATCGGGTTTCGGGGCGTGCTA`, “fitted relative affinity” read 1.03 z-score.
Under “fitted relative affinity”, `GACGAACTGAGGTTTCGAGACGTGCTA` is recorded as 1.29 z-score.
`TTAGGTTTCCTAATGCTTTAGTGCTAG` — result for “fitted relative affinity”: 0.769 z-score.
For `GACGGTATCGGTTTCGGGAGGTGCTAG`, “fitted relative affinity” read 3.31 z-score.

Set 3
Target: CCNB2, cyclin fold, Cln2 fusion (human)
Method: yeast growth competition, sequencing
Sample: yeast
Setting: weak parent motif
Relative to: not given
Direction: higher = stronger binding
Starting sequence: BRCA2 docking peptide (human); CKKRRALDFLSRL
Under “normalised enrichment score”, `CKKRRALDLLSRL [F9L]` is recorded as 0.398.
`CKKRRALDFLSRA [L13A]`: “normalised enrichment score” 0.675.
Under “normalised enrichment score”, `CKKRAALDFLSRL [R5A]` is recorded as 0.568.
`CKKRRALDFLARL [S11A]` — result for “normalised enrichment score”: 0.747.
Under “normalised enrichment score”, `CKKRRAADFLSRL [L7A]` is recorded as 0.513.
`CAKRRALDFLSRL [K2A]`: “normalised enrichment score” 0.56.
`CKKRRALDFLSAL [R12A]`: “normalised enrichment score” 1.28.

Further values, each from its own experiment
With `PhoQ, residues 284 288 289 292 302 303 SNGLAW` the fold induction was 7.43 (PhoP, residues 12 14 15 18 19 LHSVQ (Escherichia coli, UniProt P23836); Sort-seq, refers to: YFP reporter; E. coli; PhoQ-PhoP variant library, with: 10 µM Mg2+; relative to: high Mg2+ state, higher = stronger signaling).

Excerpt of the above (set 1):
`R90C` — result for “relative binding score”: 88.7%.
For `R155V`, “relative binding score” read 95%.
